Experimental data from different studies.
Protocols differ between the studies behind these lines. ± gives the spread as reported.

| SMILES | test | test system | conditions | how to read | endpoint | result |
| --- | --- | --- | --- | --- | --- | --- |
| N=C(N)NCCC[C@@H]1NC(=O)[C@H](CCCCNC(=O)CCC(NC(=S)Nc2ccc(CC3CN(CC(=O)O)CCN(CC(=O)O)CCN(CC(=O)O)CCN3CC(=O)O)cc2)C(=O)NCCCC[C@@H]2NC(=O)[C@@H](Cc3ccc(O)cc3)NC(=O)[C@H](CC(=O)O)NC(=O)CNC(=O)[C@H](CCCNC(=N)N)NC2=O)NC(=O)[C@@H](Cc2ccc(O)cc2)NC(=O)[C@H](CC(=O)O)NC(=O)CNC1=O (some centres unmarked) [scandium-44 labelled] | ex vivo γ-counting | female athymic nude mice, U-87 MG xenograft, blood | intravenous, 4 h, together with: cRGD 50 mg/kg blocking | – | tissue uptake | 0.008 ± 0.002 %ID/g |
| CCCCCCCCCCCCCCCCCCCCCCCCCC(=O)O[C@H](CCCCCCCCCCCCCC)[C@@H](O)[C@H](CO[C@H]1O[C@H](CO)[C@H](O)[C@H](O)[C@H]1O)NC(=O)OCOC(=O)CCCCCn1cc(CCC(=O)N[C@@H](Cc2ccccc2)C(=O)N[C@@H](Cc2ccccc2)C(=O)N[C@@H](CCCNC(=N)N)C(=O)N[C@@H](CCCCN)C(=O)N[C@@H](CO)C(=O)N[C@H](C(=O)N[C@H](C(=O)N[C@@H](CC(N)=O)C(=O)N[C@@H](Cc2ccccc2)C(=O)N[C@@H](CCC(=O)O)C(=O)N[C@@H](CCCCN)C(=O)N[C@@H](CC(C)C)C(=O)O)[C@@H](C)CC)[C@@H](C)CC)nn1 | HPLC-ESI-MS/MS | aqueous ammonium acetate | 10 µg/mL, eight days, pH 5.0, 20 °C | – | α-GalCer released | < 0.05% |
| CC(C)C[C@H](NC(=O)[C@@H](N)Cc1ccccc1)C(=O)N[C@@H](C)C(=O)N[C@H]1CSCc2cccc(n2)CSC[C@@H](C(=O)N[C@H](C(=O)NCC(=O)N[C@@H](CO)C(=O)N[C@@H](Cc2c[nH]c3ccccc23)C(=O)N[C@@H](CCCCNC(=O)CN2CCN(CC(=O)O)CCN(CC(=O)O)CCN(CC(=O)O)CC2)C(N)=O)[C@@H](C)O)NC(=O)[C@H](Cc2c[nH]cn2)NC(=O)[C@H]([C@@H](C)O)NC(=O)[C@H](CCC(=O)O)NC(=O)[C@@H]2CCCN2C1=O [gallium-68 labelled] | gamma counting | C57BL/6J mice, B16-F10 tumour, tumour | intravenous, 3.7 MBq, 4 h | – | tumour uptake | 6.06 ± 0.16 %ID/g |
| Cc1cc(O)cc(C)c1C[C@H](N)C(=O)N[C@H](C)C(=O)N[C@@H](Cc1ccccc1)C(=O)N[C@@H](CCCN)C(=O)NCCCCCC(=O)N[C@@H](CCCCNC(=O)CN1CCN(CC(=O)O)CCN(CC(=O)O)CCN(CC(=O)O)CC1)C(N)=O [indium-111 labelled] | – | saline, phosphate-buffered, n-octanol | pH 7.4 | – | logD | -3.5 ± 0.02 |
| CC(C)C[C@H](NC(=O)[C@@H]1CCCN1C(=O)[C@H](CCCCN)NC(=O)[C@@H](N)CO)C(=O)N1CCC[C@H]1C(=O)N[C@@H](CCC(=O)O)C(=O)N[C@H](C(=O)N[C@H](C(=O)N[C@@H](CC(=O)O)C(=O)N[C@@H](CCC(=O)O)C(=O)N[C@@H](Cc1ccc(O)cc1)C(=O)NCC(=O)NCCOCCOCCOCCOCCOCCOCCOCCOCCOCCOCCOCCOCCC(=O)N[C@@H](CCCCNC(=O)CC[C@H](C(=O)O)N1CCN(CC(=O)O)CCN(CC(=O)O)CC1)C(=O)N1CCN(CCCN(C)c2ccc3nccc(C(=O)NCC(=O)N4CC(F)(F)C[C@H]4C#N)c3c2)CC1)[C@@H](C)O)C(C)C [copper-64 labelled] | PET | NMRI nude mouse, HT-1080 hFAP xenograft, tumour | intravenous | – | time to maximum uptake | ≥ 10 min |
| CC(=O)N[C@@H](CC(C)C)C(=O)N[C@H](C(=O)N[C@@H](Cc1ccccc1)C(=O)N[C@]1(C)CCCCCC/C=C/CCC[C@@](C)(C(=O)N[C@@H](C)C(=O)N[C@@H](C)C(=O)N[C@@H](C)C(=O)N[C@@H](C)C(=O)N[C@@H](C)C(=O)N[C@H](C)C(N)=O)NC(=O)[C@H](CC(C)C)NC(=O)[C@H](CCCCNC(=O)CCNC(=O)C[C@@H]2N=C(c3ccc(Cl)cc3)c3c(sc(C)c3C)-n3c(C)nnc32)NC(=O)[C@H](C)NC(=O)[C@H](Cc2c[nH]c3ccccc23)NC(=O)[C@H](Cc2ccc(O)cc2)NC(=O)[C@H](C)NC1=O)[C@@H](C)O | – | male C57BL/6 mouse, plasma | intravenous, 10 mg/kg | – | half-life | 4.71 h |
| CC(C)C[C@@H]1NC(=O)[C@H](CC(=O)O)NC(=O)CNC(=O)[C@H](CCCNC(=N)N)NC(=O)[C@H](Cc2ccccc2)NC(=O)[C@H](CCCCNC(=O)CCc2cn(CCCNC(=O)CCC(C(=O)O)N3CCN(CC(=O)O)CCN(CC(=O)O)CCN(CC(=O)O)CC3)nn2)N(C)C(=O)[C@H]2CCCN2C(=O)[C@H](Cc2ccccc2)NC(=O)[C@H](C)NC1=O (some centres unmarked) | – | female CB17 SCID mice, tumour and lung | intravenous, dose not given, 90 min, 177Lu-labelled | baseline: tumour over lung | tissue-to-tissue ratio | 2.8 ± 0.2 |
| CCCCCCCCCCCCCCC(=O)N[C@@H](CCCCNC(=O)CN1CCN(CC(=O)O)CCN(CC(=O)O)CCN(CC(=O)O)CC1)C(=O)NCCCC[C@@H]1NC(=O)[C@@H](Cc2ccccc2)NC(=O)[C@H](CC(=O)O)NC(=O)CNC(=O)[C@H](CCCNC(=N)N)NC1=O [indium-111 labelled] | – | female BALB/c nude mice, U-87 MG xenograft, tumour | intravenous, 24 h | – | tumour uptake | 10.7 ± 0.72 %ID/g |
| C[C@@H](O)[C@@H]1NC(=O)[C@@H](NC(=O)CCOCCOCCOCCOCCNC(=O)c2ccc(NN)nc2)CSSC[C@@H](C(=O)O)NC(=O)[C@H](Cc2c[nH]cn2)NC(=O)[C@H](CO)NC(=O)[C@H](Cc2ccccc2)NC(=O)[C@@H]2CCCN2C(=O)[C@H](CO)NC(=O)[C@@H]2CCCN2C1=O [technetium-99m labelled] | – | mouse HCT-116 xenograft, small intestine | intravenous, 37 MBq, postmortem after imaging | – | tissue uptake | 1.39 ± 0.4 %ID/g |
| CCCC[C@H](NC(=O)CN1CCC(NC(=S)Nc2ccc(C[C@H]3CN(CC(N)=O)CCN(CC(N)=O)CCN(CC(N)=O)CCN3CC(N)=O)cc2)CC1)C(=O)N[C@H]1CC(=O)NCCCC[C@@H](C(N)=O)NC(=O)[C@H](Cc2c[nH]c3ccccc23)NC(=O)[C@H](CCCNC(=N)N)NC(=O)[C@@H](Cc2ccccc2)NC(=O)[C@H](Cc2c[nH]cn2)NC1=O [lead-203 labelled] | shake flask | n-octanol/PBS | pH 7.4, 203Pb-labelled | – | logD | -2.16 ± 0.11 |
| CC(C)C[C@@H]1NC(=O)[C@H](CC(=O)O)NC(=O)CNC(=O)[C@H](CCCNC(=N)N)NC(=O)[C@H](Cc2ccccc2)NC(=O)[C@H](CCCCNC(=O)CCc2cn(CCCNC(=O)CN3CCN(CC(=O)O)CCN(CC(=O)O)CCN(CC(=O)O)CC3)nn2)N(C)C(=O)[C@H]2CCCN2C(=O)[C@H](Cc2ccccc2)NC(=O)[C@H](C)NC1=O | – | female CB17 SCID mice, tumour and muscle | intravenous, dose not given, 90 min, 177Lu-labelled | baseline: tumour over muscle | tissue-to-tissue ratio | 11.9 ± 8.9 |

A few entries again:
| SMILES | test | test system | conditions | how to read | endpoint | result |
| --- | --- | --- | --- | --- | --- | --- |
| C[C@@H](O)[C@@H]1NC(=O)[C@@H](NC(=O)CCOCCOCCOCCOCCNC(=O)c2ccc(NN)nc2)CSSC[C@@H](C(=O)O)NC(=O)[C@H](Cc2c[nH]cn2)NC(=O)[C@H](CO)NC(=O)[C@H](Cc2ccccc2)NC(=O)[C@@H]2CCCN2C(=O)[C@H](CO)NC(=O)[C@@H]2CCCN2C1=O [technetium-99m labelled] | – | mouse HCT-116 xenograft, small intestine | intravenous, 37 MBq, postmortem after imaging | – | tissue uptake | 1.39 ± 0.4 %ID/g |
